{"data": "Results collected from several papers", "note": "Lines come from different studies, so protocols differ. ± marks the error that the study gave.", "sequence of UniProt Q9UQM7 (whole entry, looked up)": "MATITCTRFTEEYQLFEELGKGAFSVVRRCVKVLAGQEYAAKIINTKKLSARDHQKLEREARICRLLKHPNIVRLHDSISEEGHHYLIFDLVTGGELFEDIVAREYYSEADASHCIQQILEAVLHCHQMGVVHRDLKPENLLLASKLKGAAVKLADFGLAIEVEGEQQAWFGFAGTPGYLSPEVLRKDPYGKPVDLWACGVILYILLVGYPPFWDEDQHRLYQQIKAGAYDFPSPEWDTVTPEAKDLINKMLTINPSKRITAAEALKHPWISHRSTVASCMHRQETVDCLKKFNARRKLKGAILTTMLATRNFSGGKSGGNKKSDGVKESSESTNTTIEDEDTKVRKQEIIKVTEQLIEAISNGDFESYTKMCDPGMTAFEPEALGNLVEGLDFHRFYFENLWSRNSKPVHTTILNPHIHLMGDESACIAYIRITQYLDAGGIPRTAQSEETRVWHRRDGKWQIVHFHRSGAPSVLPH", "sequence of UniProt Q9NWZ3 (whole entry, looked up)": "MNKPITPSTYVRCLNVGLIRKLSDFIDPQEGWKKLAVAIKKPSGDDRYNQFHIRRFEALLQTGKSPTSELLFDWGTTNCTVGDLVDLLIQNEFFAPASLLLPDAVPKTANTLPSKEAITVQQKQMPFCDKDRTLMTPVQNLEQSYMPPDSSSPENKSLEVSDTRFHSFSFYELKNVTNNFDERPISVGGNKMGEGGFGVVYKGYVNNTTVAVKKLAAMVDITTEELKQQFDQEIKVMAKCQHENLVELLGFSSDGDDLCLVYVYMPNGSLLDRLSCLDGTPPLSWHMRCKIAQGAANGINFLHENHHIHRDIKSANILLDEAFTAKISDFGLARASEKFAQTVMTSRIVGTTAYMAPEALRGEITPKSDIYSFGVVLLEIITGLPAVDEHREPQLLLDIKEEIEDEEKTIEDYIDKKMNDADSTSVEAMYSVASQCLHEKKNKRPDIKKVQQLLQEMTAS", "sequence of UniProt P52564 (whole entry, looked up)": "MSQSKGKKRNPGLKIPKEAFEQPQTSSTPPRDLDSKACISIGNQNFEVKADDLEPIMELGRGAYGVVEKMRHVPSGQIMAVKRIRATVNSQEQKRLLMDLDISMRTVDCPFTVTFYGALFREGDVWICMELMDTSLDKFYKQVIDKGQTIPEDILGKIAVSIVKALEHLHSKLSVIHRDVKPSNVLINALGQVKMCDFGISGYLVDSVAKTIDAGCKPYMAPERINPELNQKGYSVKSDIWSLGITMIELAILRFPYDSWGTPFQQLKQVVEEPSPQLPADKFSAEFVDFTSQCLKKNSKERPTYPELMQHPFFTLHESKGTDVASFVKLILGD", "sequence of UniProt Q6PE15 (whole entry, looked up)": "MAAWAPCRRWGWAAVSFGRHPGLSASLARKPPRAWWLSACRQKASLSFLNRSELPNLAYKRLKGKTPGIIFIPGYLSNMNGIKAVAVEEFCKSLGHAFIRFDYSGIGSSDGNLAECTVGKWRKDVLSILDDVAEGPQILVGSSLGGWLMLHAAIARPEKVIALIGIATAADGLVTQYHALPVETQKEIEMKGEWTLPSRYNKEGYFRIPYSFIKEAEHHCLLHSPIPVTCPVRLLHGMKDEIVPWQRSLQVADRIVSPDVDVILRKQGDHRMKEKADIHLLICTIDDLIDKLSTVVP", "sequence of UniProt Q6P2M8 (whole entry, looked up)": "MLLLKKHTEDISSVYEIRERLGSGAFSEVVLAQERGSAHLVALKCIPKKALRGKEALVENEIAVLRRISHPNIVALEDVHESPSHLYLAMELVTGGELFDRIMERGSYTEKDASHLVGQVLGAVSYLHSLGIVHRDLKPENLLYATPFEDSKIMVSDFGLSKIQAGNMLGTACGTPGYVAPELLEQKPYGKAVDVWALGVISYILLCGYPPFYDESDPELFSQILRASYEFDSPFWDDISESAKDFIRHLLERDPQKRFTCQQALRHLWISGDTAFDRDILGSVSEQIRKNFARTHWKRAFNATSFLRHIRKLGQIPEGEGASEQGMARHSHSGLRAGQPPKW", "sequence of UniProt P08588 (whole entry, looked up)": "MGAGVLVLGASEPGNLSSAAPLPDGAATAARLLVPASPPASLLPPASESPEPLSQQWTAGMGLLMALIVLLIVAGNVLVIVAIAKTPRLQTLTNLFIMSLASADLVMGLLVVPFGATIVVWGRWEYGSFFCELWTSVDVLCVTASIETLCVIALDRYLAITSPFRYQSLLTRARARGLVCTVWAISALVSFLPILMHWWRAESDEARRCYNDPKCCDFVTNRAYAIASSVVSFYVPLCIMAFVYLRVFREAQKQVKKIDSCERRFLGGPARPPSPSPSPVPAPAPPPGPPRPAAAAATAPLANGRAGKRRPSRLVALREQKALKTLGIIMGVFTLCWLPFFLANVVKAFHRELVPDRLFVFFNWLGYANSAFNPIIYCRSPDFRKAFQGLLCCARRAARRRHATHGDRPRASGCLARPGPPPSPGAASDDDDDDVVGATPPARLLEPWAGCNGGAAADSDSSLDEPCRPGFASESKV", "sequence of UniProt Q9Y4E8 (whole entry, looked up)": "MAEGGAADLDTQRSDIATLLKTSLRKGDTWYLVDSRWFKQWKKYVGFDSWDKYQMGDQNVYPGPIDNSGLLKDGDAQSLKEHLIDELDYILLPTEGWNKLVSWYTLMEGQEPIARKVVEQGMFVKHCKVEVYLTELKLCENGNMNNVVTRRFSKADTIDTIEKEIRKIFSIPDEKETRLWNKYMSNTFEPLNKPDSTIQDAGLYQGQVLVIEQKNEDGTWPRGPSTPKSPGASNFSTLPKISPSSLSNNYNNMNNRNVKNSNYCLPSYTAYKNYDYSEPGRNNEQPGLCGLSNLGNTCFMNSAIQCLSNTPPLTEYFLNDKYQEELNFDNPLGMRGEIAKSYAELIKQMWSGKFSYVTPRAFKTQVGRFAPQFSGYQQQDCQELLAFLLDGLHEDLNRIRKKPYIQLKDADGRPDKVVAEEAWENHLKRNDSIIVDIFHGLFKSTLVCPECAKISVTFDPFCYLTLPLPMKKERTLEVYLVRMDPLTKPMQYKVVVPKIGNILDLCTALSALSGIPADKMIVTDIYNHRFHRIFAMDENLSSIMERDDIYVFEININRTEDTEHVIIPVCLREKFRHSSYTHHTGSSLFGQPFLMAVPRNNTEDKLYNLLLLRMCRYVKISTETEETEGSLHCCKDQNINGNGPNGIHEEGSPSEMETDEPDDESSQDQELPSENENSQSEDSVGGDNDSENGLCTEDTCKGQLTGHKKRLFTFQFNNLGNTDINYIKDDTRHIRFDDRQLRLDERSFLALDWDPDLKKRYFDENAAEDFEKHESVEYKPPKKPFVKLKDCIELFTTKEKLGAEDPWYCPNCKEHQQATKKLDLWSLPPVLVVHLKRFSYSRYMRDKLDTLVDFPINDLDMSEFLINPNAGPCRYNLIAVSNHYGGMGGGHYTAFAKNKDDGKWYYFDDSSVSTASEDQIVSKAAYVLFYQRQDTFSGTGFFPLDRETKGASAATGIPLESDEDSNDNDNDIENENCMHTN", "sequence of UniProt P33533 (whole entry, looked up)": "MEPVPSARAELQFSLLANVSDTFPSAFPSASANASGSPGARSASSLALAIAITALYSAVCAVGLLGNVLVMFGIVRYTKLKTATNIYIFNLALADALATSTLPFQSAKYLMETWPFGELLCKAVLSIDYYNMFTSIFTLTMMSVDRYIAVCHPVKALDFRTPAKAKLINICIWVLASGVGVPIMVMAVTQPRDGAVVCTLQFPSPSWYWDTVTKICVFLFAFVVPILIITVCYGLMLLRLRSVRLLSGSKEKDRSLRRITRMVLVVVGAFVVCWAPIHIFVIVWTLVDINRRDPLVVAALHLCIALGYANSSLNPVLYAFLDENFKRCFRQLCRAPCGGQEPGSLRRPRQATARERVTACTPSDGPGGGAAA"}
{"Structure (SMILES)": "Cc1ccc(N2CC3CCC(C2)N3C)cc1C(=O)N[C@H](C)c1cc(-c2cnn(C)c2)nc2ccccc12", "tested on": "USP15 (Homo sapiens, UniProt Q9Y4E8)", "test": "enzyme activity", "conditions": "30 µM, 0.5 h", "measurement": "remaining activity", "result": "102%"}
{"Structure (SMILES)": "O=C(O)c1cccc(CP(=O)(O)O)n1", "tested on": "Beta-lactamase L1 (Stenotrophomonas maltophilia, UniProt P52700)", "test": "binding, inhibitor, nitrocefin progress curves", "measurement": "dissociative half-life", "result": "11 ± 1.9 min"}
{"Structure (SMILES)": "O=C1NC2(CC2)COc2ncc(F)cc2[C@H]2COCCN2c2ccn3ncc1c3n2", "test system": "Sprague-Dawley rat, female, liver", "conditions": "oral, 2.5 mg/kg/day, 4 weeks, end of treatment", "measurement": "organ-to-brain weight ratio", "result": "618 ± 75.7%"}
{"Structure (SMILES)": "CN(C)CCCSC(=S)N1CCN(C(=O)/C=C/c2coc3ccccc3c2=O)CC1", "tested on": "Nucleoprotein (N, Tomato spotted wilt virus, UniProt P25999, R94A/Y184A)", "test": "binding, microscale thermophoresis", "conditions": "62.5 µM", "how to read": "dose series", "measurement": "MST response", "result": "1.06 a.u."}
{"Structure (SMILES)": "N[C@H](C(=O)N1CCCC1)C1CCN(c2nccc3c(-c4ncc(Cl)cc4Cl)cccc23)CC1", "tested on": "ADRB1 (Homo sapiens, UniProt P08588)", "test": "functional response, agonist", "conditions": "10 µM", "measurement": "response", "result": "-1%"}
{"Structure (SMILES)": "CS(C)(=O)=Nc1ccc(-c2ccc(-c3nc4cc(O[C@@H]5CO[C@H]6[C@@H]5OC[C@H]6O)[nH]c4cc3F)cc2)cc1", "tested on": "IRAK4 (Homo sapiens, UniProt Q9NWZ3)", "test": "enzyme activity, inhibitor", "conditions": "10 µM", "measurement": "inhibition", "result": "-14%"}
{"Structure (SMILES)": "O=C1NC(=O)c2c1c1cc(F)c[n+]3c1c1c2c2cc(O)ccc2[n]1[Ru-4]312([N]=C=S)[S+]3CC[S+]1CC[S+]2CC3 (centres unmarked)", "tested on": "MAP2K6 (Homo sapiens, UniProt P52564)", "test": "enzyme activity", "conditions": "100 nM, human enzyme, added: 10 µM ATP", "how to read": "relative to: untreated", "measurement": "remaining activity", "result": "100%"}
{"Structure (SMILES)": "N[C@@H](Cc1ccccc1)P(=O)(O)O", "tested on": "PAL1 (Petroselinum crispum, UniProt P24481, Y110F)", "test": "binding, ITC", "measurement": "ΔG", "result": "-29.3 kJ/mol"}
{"Structure (SMILES)": "CC(C)[C@H]1NC(=O)C[C@H]2/C=C/CCSSC[C@@H](NC1=O)C(=O)N[C@H](Cc1cccc3ccccc13)C(=O)NCC(=O)O2", "tested on": "CAMK2A (Homo sapiens, UniProt Q9UQM7)", "test": "enzyme activity, inhibitor", "conditions": "10 µM", "measurement": "inhibition", "result": "-1%"}
{"Structure (SMILES)": "O=C(N1CCCCC1)n1ccnn1", "tested on": "Palmitoyl-protein thioesterase ABHD10, mitochondrial (Mus musculus, UniProt Q6PE15)", "test": "probe labelling, inhibitor, competitive ABPP-SILAC, refers to: Abhd10", "test system": "mouse T cells", "conditions": "concentration not given, 4 h, protein level", "how to read": "relative to: treated over DMSO cells, lower = stronger inhibition", "measurement": "SILAC activity ratio", "result": 1.06}
{"Structure (SMILES)": "CN(C)[C@H]1C[C@@]23CC[C@@]4(O2)C(=CC[C@]2(C)[C@@H](c5ccc6ccncc6c5)CC[C@H]24)C=C3[C@@H](O)[C@@H]1O", "tested on": "PNCK (Homo sapiens, UniProt Q6P2M8)", "test": "ATP probe labelling, inhibitor, KiNativ profiling", "conditions": "0.1 µM", "measurement": "inhibition", "result": "-1.1%"}
{"Structure (SMILES)": "COc1ccccc1-c1n[nH]c2nc(N[C@H]3CC[C@H](NS(=O)(=O)CC(C)C)CC3)ncc12", "tested on": "cdc2-related kinase 12 (Leishmania donovani, UniProt A0A3S7WQK2)", "test": "kinobead competition pull-down", "test system": "Leishmania donovani, cell extract", "conditions": "2 µM", "how to read": "relative to: vehicle", "measurement": "remaining binding", "result": "8.45%"}
{"Structure (SMILES)": "COc1ccc(F)cc1S(=O)(=O)Nc1cnc2c(c1)C(=O)NCCO2", "tested on": "Na+/K+-ATPase", "test": "enzyme activity", "test system": "heart", "conditions": "10 µM", "measurement": "inhibition", "result": "-15%"}
{"Structure (SMILES)": "CC[C@@H](C)[C@@H]1CN([C@H](Cc2ccc3ccccc3c2)CN2CCC[C@H]2CN2CCNC[C@@H]2CO)CCN1CCC12CC3CC(CC(C3)C1)C2", "tested on": "Oprd1 (Rattus norvegicus, UniProt P33533)", "test": "radioligand binding", "test system": "rat brain membranes", "conditions": "500 nM, pH 7.5, 25 °C, added: 2 nM [3H]DPDPE", "measurement": "remaining binding", "result": "102%"}
{"note": "A few entries again:"}
{"Structure (SMILES)": "O=C(N1CCCCC1)n1ccnn1", "tested on": "Palmitoyl-protein thioesterase ABHD10, mitochondrial (Mus musculus, UniProt Q6PE15)", "test": "probe labelling, inhibitor, competitive ABPP-SILAC, refers to: Abhd10", "test system": "mouse T cells", "conditions": "concentration not given, 4 h, protein level", "how to read": "relative to: treated over DMSO cells, lower = stronger inhibition", "measurement": "SILAC activity ratio", "result": 1.06}
